Measured values pooled from the literature.
A part holds a random share of what one study measured. Substitutions count along the parent as printed.

Series 1
Target: CCNB2, cyclin fold, Cln2 fusion (human)
Technique: yeast growth competition, sequencing
Matrix: yeast
Setting: weak parent motif
Baseline: not given
Reading: higher = stronger binding
Starting sequence: CDC25A docking peptide (human); PPHRRRLLFACSP; partner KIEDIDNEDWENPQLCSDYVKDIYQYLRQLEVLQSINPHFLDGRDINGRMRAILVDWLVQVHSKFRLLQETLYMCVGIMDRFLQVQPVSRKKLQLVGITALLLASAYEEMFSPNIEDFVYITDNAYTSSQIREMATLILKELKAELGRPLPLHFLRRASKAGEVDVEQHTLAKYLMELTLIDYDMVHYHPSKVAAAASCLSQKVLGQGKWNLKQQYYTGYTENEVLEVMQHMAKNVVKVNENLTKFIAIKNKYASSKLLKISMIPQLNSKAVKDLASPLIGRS
Variant	normalised enrichment score
L8C	0.652
L8S	-0.013
A10Q	0.767
R4N	0.755
L8G	0.381
P2H	0.758
P1S	0.324
A10E	0.135
P13Q	1.13
A10H	0.412
H3A	0.298
L7I	0.64
S12W	0.48

Series 2
Target: Ras GTPase-activating protein-binding protein 1, RRM domain (G3BP1, Homo sapiens, UniProt Q13283)
Sequence of UniProt Q13283 (whole entry, looked up): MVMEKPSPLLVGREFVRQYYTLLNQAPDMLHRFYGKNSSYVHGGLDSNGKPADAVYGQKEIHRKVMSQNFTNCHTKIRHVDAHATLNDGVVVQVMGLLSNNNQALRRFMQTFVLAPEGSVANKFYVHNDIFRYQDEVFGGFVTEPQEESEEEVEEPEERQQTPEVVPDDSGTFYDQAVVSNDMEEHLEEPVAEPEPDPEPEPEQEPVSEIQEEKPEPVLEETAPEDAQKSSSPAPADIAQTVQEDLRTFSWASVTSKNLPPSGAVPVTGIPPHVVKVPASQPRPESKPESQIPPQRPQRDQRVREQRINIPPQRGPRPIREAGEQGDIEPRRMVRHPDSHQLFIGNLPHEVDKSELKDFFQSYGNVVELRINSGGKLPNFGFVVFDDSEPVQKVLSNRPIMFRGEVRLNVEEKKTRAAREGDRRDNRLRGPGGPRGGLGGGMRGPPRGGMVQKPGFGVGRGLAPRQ
Technique: RNA Bind-n-Seq
Molecule type: RNA
Matrix: in vitro
Tested at: 1 µM
Setting: whole 134-nt RNA, ends assumed
Together with: 150 mM KCl
Baseline: input library
Reading: higher = stronger binding
Constant ends, left off below: GGGAGUUCUACAGUCCGACGAUC … UGGAAUUCUCGGGUGUCAAGG
Sequence	log2 enrichment
UUUCUGCAGCAUUAGAGAAGGCCCAAGAAGAAGCCCGUCAGCAGCAAGAAACAUUAGCCAUUCAAGUAAGCAAUGGAUGAUGAAUUAGAG	-0.148
AAGUCCUGUGCUACACAUCGUAUGUACCGAAUCGGUUUUUGGAAAAAGGUUUUUGGAAAGUAUUAUGUUACGCCGUUCGGAUCUGCACUU	-0.408
UCCUGUGCUACACAUCGUAUGUACCGAAUCGGGAAAAAAAGGGAAAGGGAAAAAAAGGGAAAGUAUUAUGUUACGCCGUUCGGAUCUGCA	0.132
AAGUCCUGUGCUACACAUCGUAUGUACCGAAUCGGGAAAAAAAGGGAAAGGGUGGGAAAGUAUUAUGUUACGCCGUUCGGAUCUGCACUU	0.798
UUUGUGAGACAUGUGAAAGGAGGACAUGGUCACAGUCAUGGACAUGGACACGCUCACAGUCAUACACGUGGAAGUCAUGGACAUGGAAGA	-0.209
UGUCAGUAUCAUACAUAACAGAGGAAUGCCUGAAGAAGCUGGACACAAAGCAGCAGACCAACACCCUGCUCAACCUGGUGUGGAGGGACU	0.0916
UGGGAGGUGGAUUUUGUUUAUUUUUUUAGCUCAUUUCCAGGGGUGGGAAUUUUUUUUUAAUAUGUGUCAUGAAUCAAGUUGUUUUUGAAA	1.19
AAGUCCUGUGCUACACAUCGUAUGUACCGAAUCGGGUUUGGGAAAGGGUUUUUGGGAAAGUAUUAUGUUACGCCGUUCGGAUCUGCACUU	0.719
AGUCCUGUGCUACACAUCGUAUGUACCGAAUCGGAAAAAGGAAAAAGGGGAAAAAGGGAAAGUAUUAUGUUACGCCGUUCGGAUCUGCAC	0.0412
CAAGUCCUGUGCUACACAUCGUAUGUACCGAAUCGGGGAAAGGGAAAGGAAAGGGAAAGUAUUAUGUUACGCCGUUCGGAUCUGCACUUC	-0.145
ACCAUGCAGGUGGGCAUCUUUGGGAAGUGGGGCAAGGGGGGGAUAGGGAGGGGGGUAGCACUUUGGGAACAGGUGGUCCCAGGUCGUUUC	0.939
GCAGGAAGUAAAAACAAAUGGAAAUGCUUCGGAUAGUGGCAGGGGUGGGGGUUGCUAAGGAAAGGGUGGGAUGGGAAUGGGUAAAGAGUU	1.24
CUCAAGUCCUGUGCUACACAUCGUAUGUACCGAAUCGGGGUGGGUGGGUGGGGAAAGUAUUAUGUUACGCCGUUCGGAUCUGCACUUCCA	1.27
UCCUGUGCUACACAUCGUAUGUACCGAAUCGGGGUGGGGUUUUUGGGGUUUUUUUGGGGAAAGUAUUAUGUUACGCCGUUCGGAUCUGCA	0.686

Series 3
Target: ABI1, truncated, D143A, DHFR fusion (Arabidopsis thaliana)
Technique: DHFR PCA, deep sequencing
Matrix: yeast
Setting: methotrexate growth selection, single substitutions
Together with: (+)-ABA 1.4 µM
Baseline: wild-type fitted maximum
Reading: higher = stronger binding
Starting sequence: PYL1, truncated, DHFR fusion (Arabidopsis thaliana); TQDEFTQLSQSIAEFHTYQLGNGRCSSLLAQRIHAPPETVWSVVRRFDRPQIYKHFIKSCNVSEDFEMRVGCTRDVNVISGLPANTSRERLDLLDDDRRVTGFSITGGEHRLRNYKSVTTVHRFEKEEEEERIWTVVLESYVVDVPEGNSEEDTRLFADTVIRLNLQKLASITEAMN; partner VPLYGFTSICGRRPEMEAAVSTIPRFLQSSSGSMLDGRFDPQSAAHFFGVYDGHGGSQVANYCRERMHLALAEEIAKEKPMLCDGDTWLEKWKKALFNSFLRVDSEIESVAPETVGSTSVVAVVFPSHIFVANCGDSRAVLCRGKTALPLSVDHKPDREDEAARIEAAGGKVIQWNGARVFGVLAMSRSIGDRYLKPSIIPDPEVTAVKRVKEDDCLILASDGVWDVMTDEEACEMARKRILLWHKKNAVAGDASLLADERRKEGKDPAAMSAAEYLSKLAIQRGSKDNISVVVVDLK
Variant	relative binding score
T106D	6.79%
Q7E	67.2%
Y141N	-5.67%
R45H	6.15%
R90W	-5.48%
C72A	76.7%
F47C	-1.77%
I162W	14.2%
E109L	6.14%

Single results of other studies
Substance	target	assay	system	conditions	scale	endpoint	result
PhoQ, residues 284 288 289 292 302 303 TLMATV	PhoP, residues 12 14 15 18 19 DLLYY (Escherichia coli, UniProt P23836)	Sort-seq, item: YFP reporter	E. coli	PhoQ-PhoP variant library, together with: 10 µM Mg2+	baseline: high Mg2+ state, higher = stronger signaling	fold induction	1.43

For quick reference, copied from above (series 1):
Variant	normalised enrichment score
L7I	0.64
L8S	-0.013
A10H	0.412
A10E	0.135
L8G	0.381
S12W	0.48
